Published values collected from several papers.
Each numbered part is a random draw from the data of one study; scales do not carry over between parts.

Set 1 — method: RNA Bind-n-Seq; molecule type: RNA; matrix: in vitro; concentration: 365 nM; reference: no-protein control; direction: higher = stronger binding
Target: RNA binding protein fox-1 homolog 2, RRM domain, GST-SBP tag (RBFOX2, Homo sapiens, UniProt O43251-10, residues 100-194)
Setting: natural RNA segment, single round, ends assumed
All sequences stand within: GGGAGUUCUACAGUCCGACGAUC … UGGAAUUCUCGGGUGCCAA
Target sequence (chain): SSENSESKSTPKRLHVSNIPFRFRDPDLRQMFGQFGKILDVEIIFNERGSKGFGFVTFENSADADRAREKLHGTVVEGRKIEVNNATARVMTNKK
Oligonucleotide	RBNS enrichment (R)
CCUGUCUGCCUGCCCAGCCAUGCUCCAUCGGCUGUGAGGGCAGUGCCCGGAGAGGCCAGAGGGUUGGAGCUGCAGGGACCCGUUUGGACCCACAGCCUCUGUUCUAGAGA	0.582
UGUUAACCAAAAGAGCUUCCCCUCCCCCAGUUUUCUUUUAUGACCACUGAUGACUGCGGCUGUCUCGACAGUCAUCUUCACAUCUGCUCCCCUCCACAGUCACUAGAGGG	0.595
GUACAUAUCACUACAGUUAUAGGAAGUUUCAGUCUACAGUCCAUCCAAAGGACCAACCUGCCUUACACAUCUCAAGGAAUUCAGCUGUUGAAAUCAUUUGAACUAAUCAA	0.324
GAAGCAGAAGCAGACAUCCCAUUGCACCAGGACAGAGUACGGGACUUCACUCGGCAAGCAGCCCUGGUCAGAUCUGGCAGUCUUGUUGCCGAAGAUUCUGCGUGUCCUUC	0.851
AUUAAUAUUAAUACAGUGAUCUUUUGAAUGUUCCAGGUAUAGGCUUUUUAAAAAGUGUUAAGAGUGUCUGUCUGUCUGUCUGUCUGUCUGUCUGUCUGUACGUUUAAUUG	2.2
UUGUGAAAUAGCUUCUGUUGGAAACCUUUUGAGGGGAAUAAGGAAUGGUCAUCUAAAAUGAGAGAUUCUGGAUUUUAAUGCAGUUCAAAGUUGAGCUGUAUUUUUGUUGU	0.63
CAGAGUAGUUUGGUUUUUAAAAUAUCUGGUGAUGUCAUUCUCUUGCUUAGAACACUAGCUUCCUGUUACGCUUCAUCUAAAAUGCAAAUUCUUACACCCAGCUUACGAGA	4.72
UUGUGUAUAUUACUACAAAGACAACCCCAAACCAAUUUUUUUCCUGCGAAGUUUAAUGAUCCACAAGUGUAUAUAUGAAAUUCUCCUCCUUCCUUGCCCCCCUCUCUUUC	0.96
UUACAGUGCUGCAAAGUUGUGUGCAUCGCUAAAGAGAGCCCCAACCUAUACAGAGAGCAAACAAUGAGAUAAGAGGAACUGUCGCAAAGCUUUCCACUGAAACACAGGUC	0.382
UGGAAGCCCUGAUCCCCCAGAGAGCUACAGGUCUGCUCCCGACGGGCCUCGGGCCUGACCCGUCCACACAGGGCCGUGUCAACAGCAGCGACUCAAGGGACGUGUGUACA	0.299
GAGGUCCGCCGCCAUCCACACCCAGCCAAGACACCUCAGAGGCCAUAGGGACAACCUCCUUGCUGGCCAACACCUGCUGGAGCAGGGGCACAGGUCCCAGCAACUGAUCC	0.28
CAUCUCCAAAAGUUUGUCUUUGAUUUUUUCCAAGCCCUUAGCCCCAUAAGCUUUGAAUCCUGUAGUUACAGUGGCAUAAAGGACUGACAAAACCUGGAUAAGGAAAAACC	0.367

Set 2 — method: protein-binding microarray; molecule type: double-stranded DNA, one strand shown; matrix: in vitro; concentration: 2200 nM top; setting: 60-bp whole probe; with: salmon DNA 0.4 mg/ml; reference: random background probes; direction: higher = stronger binding; all sequences stand within: GCCTAGCAC … GTCTTGATTCGCTTGACGCTGCTG
Target: Interferon regulatory factor 7, full length, phosphomimetic (IRF7, Homo sapiens, UniProt Q92985, residues 1-503, S471D/S472D/S475D/S476D/S477D/S483D/S484D/S487D)
UniProt Q92985, sequence (whole entry, unmodified, looked up): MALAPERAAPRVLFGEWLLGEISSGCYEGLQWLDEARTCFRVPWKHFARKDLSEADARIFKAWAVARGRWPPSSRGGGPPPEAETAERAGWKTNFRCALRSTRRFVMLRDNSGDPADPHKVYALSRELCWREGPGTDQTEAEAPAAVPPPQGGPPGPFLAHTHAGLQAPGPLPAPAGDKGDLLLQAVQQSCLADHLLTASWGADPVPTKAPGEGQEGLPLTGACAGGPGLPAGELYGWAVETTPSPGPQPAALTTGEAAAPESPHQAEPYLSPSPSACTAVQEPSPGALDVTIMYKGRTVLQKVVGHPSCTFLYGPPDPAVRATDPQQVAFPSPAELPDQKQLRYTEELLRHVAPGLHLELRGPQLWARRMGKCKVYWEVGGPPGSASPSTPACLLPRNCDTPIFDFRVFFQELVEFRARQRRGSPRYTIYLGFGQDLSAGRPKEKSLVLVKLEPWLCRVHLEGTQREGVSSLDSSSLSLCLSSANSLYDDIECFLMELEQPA
Oligonucleotide	fitted relative affinity [z-score]
GACGATTTCAGTGCCGAGACGTGCTAG	0.422
TTGTAAATCTTTTTCCCTATGTGCTAG	1.08
GACGGTCTCCTTAGCCTGACGTGCTAG	0.272
TTTTTTATCAATCATTTTAGTGTGCTA	0.64
CTATATTAGGGAAGTGTGTTGTGCTAG	0.26
TCATGCTTGTATCTGGGACTGTGCTAG	0.763
TCACCTCCCTAATTCTGACTGTGCTAG	2.09
GAGTTCCTCTCTAGGCACTGGTGCTAG	0.452
TCACTAATCTCACTCTGACTGTGCTAG	0.932
TCAAAAATGATTGGTTGACTGTGCTAG	-0.33
AACGATCTCAGTCTCGAGACGTGCTAG	0.383
TTAGGTTTTGACTTTCGGTTAGTGCTA	6.5
GTGACTCAGCACTTTGGCATGGTGCTA	0.141
CCCTTAAAAGACGTGCCAATGTGCTAG	-0.279
AGTGGCCCAGGGCATCCCCTGTGCTAG	-1.28
TTAGCTATCCTACTGCTTTAGTGCTAG	0.819
TTAGAACTGAGTATCTATTAGTGCTAG	-0.446
TTAGGAGTCAACTCTCTAATTGTGCTA	-0.51
TTAGGTTTCGGAGTGGGTTAGTGCTAG	2.54
TTAGGAGTGCTTTTCCTTTAGTGCTAG	0.772
TCACTTGTGTTTATTGTACTGTGCTAG	1.46
GACGGTCTCGGTTTCGGCACGTGCTAG	2.63

Set 3 — method: universal PBM; molecule type: double-stranded DNA, one strand shown; matrix: in vitro; concentration: 600 nM; direction: higher = stronger binding
Target: Sal-like protein 4, full length isoform A (SALL4, Homo sapiens, UniProt Q9UJQ4, residues 1-1053)
UniProt Q9UJQ4, sequence (whole entry, looked up): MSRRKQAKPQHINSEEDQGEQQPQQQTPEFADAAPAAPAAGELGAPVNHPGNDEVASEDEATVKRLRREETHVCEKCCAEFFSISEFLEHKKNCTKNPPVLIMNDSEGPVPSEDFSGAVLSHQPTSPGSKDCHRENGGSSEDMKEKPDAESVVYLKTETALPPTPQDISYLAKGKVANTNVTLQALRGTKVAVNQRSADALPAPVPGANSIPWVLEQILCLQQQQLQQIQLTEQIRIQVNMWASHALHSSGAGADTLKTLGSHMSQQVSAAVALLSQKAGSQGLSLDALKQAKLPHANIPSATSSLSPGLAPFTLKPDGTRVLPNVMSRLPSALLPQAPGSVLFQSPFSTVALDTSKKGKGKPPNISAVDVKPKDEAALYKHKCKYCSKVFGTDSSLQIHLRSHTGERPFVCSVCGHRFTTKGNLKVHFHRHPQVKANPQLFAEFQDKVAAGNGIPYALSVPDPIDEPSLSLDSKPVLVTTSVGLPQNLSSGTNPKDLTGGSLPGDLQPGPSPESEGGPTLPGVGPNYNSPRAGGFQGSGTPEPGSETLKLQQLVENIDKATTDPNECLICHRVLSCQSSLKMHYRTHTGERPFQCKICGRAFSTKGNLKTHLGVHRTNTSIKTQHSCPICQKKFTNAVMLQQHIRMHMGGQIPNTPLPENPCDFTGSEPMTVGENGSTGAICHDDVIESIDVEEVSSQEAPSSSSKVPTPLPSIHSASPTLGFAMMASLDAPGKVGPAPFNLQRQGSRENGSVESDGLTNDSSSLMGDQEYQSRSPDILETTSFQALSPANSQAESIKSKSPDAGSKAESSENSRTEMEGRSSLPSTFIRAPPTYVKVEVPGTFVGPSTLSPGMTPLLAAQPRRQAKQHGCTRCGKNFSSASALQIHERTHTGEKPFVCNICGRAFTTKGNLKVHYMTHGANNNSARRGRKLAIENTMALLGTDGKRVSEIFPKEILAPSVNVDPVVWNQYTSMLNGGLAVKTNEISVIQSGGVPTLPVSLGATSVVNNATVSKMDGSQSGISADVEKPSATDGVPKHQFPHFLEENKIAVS
Setting: 8-mer, flanks averaged, mean of replicates
Oligonucleotide	E-score
CAGAACCC	-0.236
GAAGGAAA	0.0888
TCTTTTCA	0.177
ATGCCAAA	0.072
CGTCTATA	0.138
AACGCATA	0.137
GTGTGGAA	0.0989
GGACCGCC	-0.399
ACTTGATG	0.0866
ATGACCGG	-0.221
CACTCGAG	-0.239
ATTCCCCC	-0.129
AAACGCTG	-0.0767
GAGATGTA	0.205
CCTCTGCC	-0.201
ACGCGTGG	-0.211

Set 4 — method: RNA Bind-n-Seq; molecule type: RNA; matrix: in vitro; concentration: 200 nM; setting: whole 134-nt RNA, ends assumed; with: 150 mM KCl; reference: input library; direction: higher = stronger binding
Target: Ras GTPase-activating protein-binding protein 1, full length (G3BP1, Homo sapiens, UniProt Q13283)
UniProt Q13283, sequence (whole entry, looked up): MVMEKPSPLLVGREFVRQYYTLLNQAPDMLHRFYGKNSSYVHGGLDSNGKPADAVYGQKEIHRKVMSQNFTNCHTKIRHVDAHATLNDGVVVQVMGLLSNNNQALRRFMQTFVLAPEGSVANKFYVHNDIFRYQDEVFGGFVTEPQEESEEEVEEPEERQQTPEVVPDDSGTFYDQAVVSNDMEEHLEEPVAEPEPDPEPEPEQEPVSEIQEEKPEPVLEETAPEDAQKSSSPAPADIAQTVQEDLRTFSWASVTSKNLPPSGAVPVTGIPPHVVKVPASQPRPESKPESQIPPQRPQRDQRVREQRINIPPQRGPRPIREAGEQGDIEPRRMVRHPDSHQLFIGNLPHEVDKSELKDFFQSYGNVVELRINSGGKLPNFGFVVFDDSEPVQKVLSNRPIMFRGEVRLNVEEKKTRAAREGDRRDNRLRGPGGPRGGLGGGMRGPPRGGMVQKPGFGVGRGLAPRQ
All sequences stand within: GGGAGUUCUACAGUCCGACGAUC … UGGAAUUCUCGGGUGUCAAGG
Oligonucleotide	log2 enrichment
GUGCUACACAUCGUAUGUACCGAAUCGGGGUUUUUUUGGGGUUUUUUUGGGGAAAAAAAGGGGAAAGUAUUAUGUUACGCCGUUCGGAUC	-0.469
GCAGGAAGUAAAAACAAAUGGAAAUGCUUCGGAUAGUCGCAGGGGUGGGGGUUGCUAAGGAAAGGGUGGGAUGGGAGUGGGUAAAGAGUU	0.921
UUAAAGAAAUGUCCACAAGUAACUUUGAAUCAUCUCCUGAAGUAGAAGAAAGGCCUGCUGUGUCUUUGACUCUUGAUCAGAGCCAGUCAC	-1.01
ACCAUGCAUGUGGGCAUCUUUGGGAAGUGGGGCAAGGGGGGGAUAGGGAGGGGGGUAACACUUUGGGAACAGGUGGUCCCAGGUCGUUUC	1.11
AACUGGAAGAACAGACCCGUAGGGCUCUGGAACUUGAGCAGGAACGGAAGCGUGCCCAGAGCGAGGCUGAAAAGCUGGCCAAGGAGCGUC	-0.875
UGGCCCUGGUGGCAUGCGGGGAGGAAGAGGUGGCCUCAUGGAUCGUGGUGGUCCCGGUGGAAUGUUCAGAGGUCGCCGUGGUGGAGACAG	-0.244
UCAAGUCCUGUGCUACACAUCGUAUGUACCGAAUCGGAAAAAAAGGAGGAAAGGAAAGUAUUAUGUUACGCCGUUCGGAUCUGCACUUCC	-1.08
UCCUCAAGUCCUGUGCUACACAUCGUAUGUACCGAAUCGGGUGGUGGUGGGAAAGUAUUAUGUUACGCCGUUCGGAUCUGCACUUCCAGC	0.02
AGUCCUGUGCUACACAUCGUAUGUACCGAAUCAAAUUUUUAAACCCCCAAAUUUAAAAAAGUAUUAUGUUACGCCGUUCGGAUCUGCACU	-0.502
CCUGUGCUACACAUCGUAUGUACCGAAUCGGGAAAAAGGGAAAAAAAGGGAAAAAAAGGGAAAGUAUUAUGUUACGCCGUUCGGAUCUGC	-0.74
UAACUUUAGAGGAGGAUCUGAUGGAAAUGGCAGUGGACGUGGAUUUGGGGAUGGCUAUAAUGGGUAUGGAGGAGGACCUGGAGGUGGCAA	0.302
UUCUUUGCCCAACGGGGCCGUGGAUACCUGCCUUUUAAUUCUUUUUUAUUCGCCCAUCGGGGCCGCGGAUACCUGCUUUUUAUUUUUUUU	0.193
AGUCCUGUGCUACACAUCGUAUGUACCGAAUCGGGAAAGGGUUUGGGUUUUUUUGGGAAAGUAUUAUGUUACGCCGUUCGGAUCUGCACU	-0.212
ACCAUGCAGGUGGGCAUCUUUGGGAAGUGGGGCAAGGGGGGGAUAGGGAGGGGGGUAACACUUUGGGACCAGGUGGUCCCAGGUCGUUUC	0.932

Set 5 — method: protein binding microarray; molecule type: double-stranded DNA, one strand shown; matrix: in vitro; concentration: not given; reference: not given; direction: higher = stronger binding
Target: Histone acetyltransferase KAT6A, winged helix 1, GST fusion (KAT6A, Homo sapiens, UniProt Q92794, residues 1-85)
Setting: 8-mer, flanks averaged, mean of 2 arrays, mostly near background
Construct (chain): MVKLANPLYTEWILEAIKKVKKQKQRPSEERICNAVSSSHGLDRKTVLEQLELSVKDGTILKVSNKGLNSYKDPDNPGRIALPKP
Oligonucleotide	E-score
GTTACAGA	-0.123
CGAATGCC	0.258
AGTCTCAG	-0.264
ACACCAGG	-0.192
AAATCGTA	-0.0466
TCATTGAA	-0.211
ACCCTGCT	-0.134
AGATACCA	-0.0818
AGGCCAAA	-0.183
CTCGTTAC	-0.146
CGGAACGC	0.335
CTTACGAC	-0.0176
AGAGGTAT	-0.0369
AAGAGAAA	-0.053
GGAATCAC	-0.121
CTGAATCA	-0.192
GGCCATAC	0.114
CGCCGTCA	0.425
AATGCGAA	0.0251
AATGACAG	-0.306
CGGTCTCA	0.0189
GAAATCTC	-0.0704
CAACGCAC	0.0725
TATGAACA	-0.193
TATCTGGA	-0.255

Some of these lines once more (set 5):
Oligonucleotide	E-score
CGGTCTCA	0.0189
AATGCGAA	0.0251
CGAATGCC	0.258
CAACGCAC	0.0725
CGCCGTCA	0.425
CTTACGAC	-0.0176
